Published values from different studies.
Each line is one published result; not all experiments were run side by side.

Compound = Cc1ccc(NC(=O)N2CCCN3CCC(c4ccc(C#CC5(O)CCCCC5)cc4)C3C2)cc1 (stereo not drawn); test system = CD-1 mouse, brain; conditions = oral, 10 mg/kg, single dose; Tmax = 60 min
Compound = NC(=O)c1ccc(C(=O)NOCc2ccc(Sc3cccc(Cl)c3)c(C(F)(F)F)c2)cc1; test system = male ICR mouse, plasma; conditions = oral, 60 mg/kg; Tmax = 15 min
Compound = CC(C)c1cnn2c(NCc3ccccc3F)cc(N[C@H]3CC[C@@H](N)CC3)nc12; test system = female BALB/c mouse, plasma; conditions = oral, 10 mg/kg; Tmax = 120 min
Compound = COc1ccc(NC(=O)N2CCCN3CCC(c4ccc(C#Cc5ccccc5)cc4)C3C2)cc1 (stereo not drawn); test system = CD-1 mouse, plasma; conditions = oral, 10 mg/kg, single dose; Tmax = 180 min
Compound = C[C@@H](COc1ccc(F)cc1)C(=O)n1nc(N)c2ccc(CO)cc21; test system = C57BL/6 mouse, plasma; conditions = ip, 10 mg/kg; Tmax = 15 min
Compound = COc1ccc(-c2ccn(CC[C@](C)(C(=O)NO)S(C)(=O)=O)c(=O)c2)c(F)c1; test system = CF-1 mouse, female; conditions = subcutaneous, 18.75 mg/kg; Tmax = 15 min
Compound = CC=C1C(OC2OC(CO)C(O)C(O)C2O)OC=C(C(=O)OC)C1CC(=O)OCC1OC(OCCc2ccc(O)cc2)C(O)C(O)C1O (stereo not drawn); test system = PGF tumour-bearing BALB/c mouse, plasma; conditions = oral, 109.2 mg/kg; Tmax = 10 min
Compound = CC(C)[C@H](CO)Nc1nc(Nc2ccc(C(=O)NCCNS(=O)(=O)c3cccc4c(N(C)C)cccc34)c(Cl)c2)c2ncn(C(C)C)c2n1; test system = mouse, pancreas and spleen; conditions = oral, 20 mg/kg; Tmax = 240 min
Compound = COCc1nc(C(F)(F)F)[nH]c1-c1cc(C(=O)N2CC(c3ccc(C#N)cc3)C2)c(C)cc1C; test system = mouse; conditions = oral, 10 mg/kg; Tmax = 60 min
Compound = CCNC(=O)c1noc(-c2cc(C(C)C)c(O)cc2O)c1NC(=O)CCN1CCOCC1; test system = CD1 nude mouse, A-431 xenograft, lung; conditions = intraperitoneal, 80 mg/kg single; Tmax = ≤ 60 min
Compound = N#CC1(c2ccc3c(N)ncnn23)OC(COP(=O)(O)O)C(O)C1O (stereo not drawn); assay = LC-MS/MS; test system = CD-1 mouse male, liver; conditions = oral, 100 mg/kg of remdesivir; Tmax = 60 min
Compound = N=C(N)NCCC[C@@H]1NC(=O)[C@H](Cc2c[nH]c3ccccc23)NC(=O)[C@@H](CC2CCCCC2)NC(=O)[C@@H]2CCCN2C(=O)[C@@H](NC(=O)CCc2ccccc2)CCCNC1=O; test system = C57BL/6J mouse, plasma; conditions = oral, 1 mg/kg, single dose; Tmax = 27.7 min
Compound = O=C1OC2(c3ccccc31)c1cc(I)c(O)c(I)c1Oc1c2cc(I)c(O)c1I; test system = C57BL/6 mouse, female, plasma; conditions = intraperitoneal, 50 mg/kg; Tmax = 15 min
Compound = Cc1cc(NC(=O)[C@H](O)c2cc(F)cc(F)c2)ccc1-c1cnc(N)c(C(=O)NC(C)C)c1; test system = mouse, plasma; conditions = oral, 3 to 100 mg/kg; Tmax = < 60 min
Compound = COc1ccc(NC(=O)N2CCCCN3[C@H](CN(C)C)[C@H](c4ccc(C#Cc5ccccc5)cc4)[C@@H]3C2)cc1; test system = CD-1 mouse, brain; conditions = oral, 10 mg/kg, single dose; Tmax = 480 min
Compound = [11CH3]N1CCN(CCCOc2ccc(=O)n(-c3ccc(Cl)c(Cl)c3)n2)CC1; assay = radiotracer; test system = mouse BALB/c male, spleen; conditions = intravenous; Tmax = 15 min
Compound = Oc1cc(F)ccc1Oc1ccccc1; test system = CD-1 mouse, plasma; conditions = subcutaneous, 100 mg/kg; Tmax = 45 min
Compound = CCCCCCCCCCCCCCCC(=O)NCCOCCOCCOCCOCCOCCOCCOCCOCCC(=O)NCCCC[C@H](NC(=O)CNC(=O)[C@@H]1CSSC[C@H](N)C(=O)N[C@@H](Cc2ccc(O)cc2)C(=O)N[C@@H]([C@@H](C)CC)C(=O)N[C@@H](CCC(N)=O)C(=O)N[C@@H](CC(N)=O)C(=O)N1)C(=O)NCC(N)=O; test system = mouse, plasma; conditions = subcutaneous, 1 mg/kg; Tmax = 120 min
Compound = O=C(Nc1nccs1)C(c1cc(F)ccc1O)N1Cc2ccccc2C1=O (stereo not drawn); test system = mouse FVB/NRj, female, plasma; conditions = oral, 20 mg/kg; Tmax = ~5 min
Compound = C[C@@H]1Cc2c([nH]c3ccccc23)[C@@H](c2c(F)cc(/C=C/C(=O)O)cc2F)N1C12CC(C1)C2; test system = Balb/c nude mouse, MCF7 xenograft, tumour; conditions = oral, 5 mg/kg; Tmax = 120 min
Compound = Cc1nc(NC(=O)N2CCC[C@H]2C(N)=O)sc1-c1csc(C(C)(C)C)n1; test system = CD-1 mouse, plasma; conditions = intraperitoneal, 10 mg/kg; Tmax = 30 min

Repeated from above:
Compound = CCCCCCCCCCCCCCCC(=O)NCCOCCOCCOCCOCCOCCOCCOCCOCCC(=O)NCCCC[C@H](NC(=O)CNC(=O)[C@@H]1CSSC[C@H](N)C(=O)N[C@@H](Cc2ccc(O)cc2)C(=O)N[C@@H]([C@@H](C)CC)C(=O)N[C@@H](CCC(N)=O)C(=O)N[C@@H](CC(N)=O)C(=O)N1)C(=O)NCC(N)=O; test system = mouse, plasma; conditions = subcutaneous, 1 mg/kg; Tmax = 120 min
